Assay results gathered from unrelated publications.
Each numbered part is a random draw from the data of one study; scales do not carry over between parts.
Chain of UniProt P45984 (whole entry, looked up): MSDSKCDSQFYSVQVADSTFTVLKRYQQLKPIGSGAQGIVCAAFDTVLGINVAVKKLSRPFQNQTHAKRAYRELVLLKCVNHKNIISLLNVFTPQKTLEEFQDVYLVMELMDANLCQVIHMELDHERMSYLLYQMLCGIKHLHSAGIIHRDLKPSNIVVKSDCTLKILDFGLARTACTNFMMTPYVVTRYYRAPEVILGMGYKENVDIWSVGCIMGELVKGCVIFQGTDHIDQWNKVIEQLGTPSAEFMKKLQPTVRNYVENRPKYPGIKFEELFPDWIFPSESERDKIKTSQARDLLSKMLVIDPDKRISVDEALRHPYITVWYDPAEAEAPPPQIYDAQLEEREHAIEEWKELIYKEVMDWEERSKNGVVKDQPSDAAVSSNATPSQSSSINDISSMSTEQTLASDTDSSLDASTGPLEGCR
Chain of UniProt Q15759 (whole entry, looked up): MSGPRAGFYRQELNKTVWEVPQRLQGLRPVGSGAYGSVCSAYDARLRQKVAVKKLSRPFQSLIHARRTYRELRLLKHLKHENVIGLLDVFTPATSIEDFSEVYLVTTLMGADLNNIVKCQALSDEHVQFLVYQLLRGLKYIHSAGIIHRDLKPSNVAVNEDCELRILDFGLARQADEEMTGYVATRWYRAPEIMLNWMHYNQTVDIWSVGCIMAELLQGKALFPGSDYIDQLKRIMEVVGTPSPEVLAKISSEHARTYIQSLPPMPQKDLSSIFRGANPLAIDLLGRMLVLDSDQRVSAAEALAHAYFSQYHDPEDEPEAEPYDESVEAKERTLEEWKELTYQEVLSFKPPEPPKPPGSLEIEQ
Chain of UniProt Q13557 (whole entry, looked up): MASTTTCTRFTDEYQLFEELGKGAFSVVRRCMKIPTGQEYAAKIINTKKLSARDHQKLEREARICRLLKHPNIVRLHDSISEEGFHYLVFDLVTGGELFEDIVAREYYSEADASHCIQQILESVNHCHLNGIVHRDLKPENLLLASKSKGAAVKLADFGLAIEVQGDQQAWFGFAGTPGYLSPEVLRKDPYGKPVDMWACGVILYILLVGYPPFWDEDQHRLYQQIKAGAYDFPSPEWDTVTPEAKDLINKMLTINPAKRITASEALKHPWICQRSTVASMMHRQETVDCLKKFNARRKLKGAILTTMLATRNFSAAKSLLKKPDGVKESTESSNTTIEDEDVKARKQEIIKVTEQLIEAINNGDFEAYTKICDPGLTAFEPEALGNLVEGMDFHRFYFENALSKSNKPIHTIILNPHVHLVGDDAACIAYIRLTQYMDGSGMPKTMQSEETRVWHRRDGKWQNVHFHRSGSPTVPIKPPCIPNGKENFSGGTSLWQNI
Chain of UniProt P51955 (whole entry, looked up): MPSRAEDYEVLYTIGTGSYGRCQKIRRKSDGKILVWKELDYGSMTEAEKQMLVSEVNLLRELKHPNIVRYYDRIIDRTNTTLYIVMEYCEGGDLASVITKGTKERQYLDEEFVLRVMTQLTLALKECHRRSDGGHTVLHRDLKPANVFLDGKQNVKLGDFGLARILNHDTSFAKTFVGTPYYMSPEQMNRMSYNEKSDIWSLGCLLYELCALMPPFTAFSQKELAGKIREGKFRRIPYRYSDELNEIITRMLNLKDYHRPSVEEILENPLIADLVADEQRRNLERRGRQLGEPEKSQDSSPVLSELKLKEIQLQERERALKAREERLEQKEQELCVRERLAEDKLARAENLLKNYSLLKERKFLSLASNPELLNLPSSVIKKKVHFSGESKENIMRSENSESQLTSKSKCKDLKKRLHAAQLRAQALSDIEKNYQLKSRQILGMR
Chain of UniProt Q00535 (whole entry, looked up): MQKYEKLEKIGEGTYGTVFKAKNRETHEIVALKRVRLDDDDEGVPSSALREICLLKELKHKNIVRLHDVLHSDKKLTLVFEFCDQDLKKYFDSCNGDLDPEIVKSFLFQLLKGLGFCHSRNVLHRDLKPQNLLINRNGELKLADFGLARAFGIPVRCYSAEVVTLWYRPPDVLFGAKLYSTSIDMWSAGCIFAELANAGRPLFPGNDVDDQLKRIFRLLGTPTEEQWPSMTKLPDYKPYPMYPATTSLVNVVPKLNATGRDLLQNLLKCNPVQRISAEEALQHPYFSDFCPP
Chain of UniProt Q99759 (whole entry, looked up): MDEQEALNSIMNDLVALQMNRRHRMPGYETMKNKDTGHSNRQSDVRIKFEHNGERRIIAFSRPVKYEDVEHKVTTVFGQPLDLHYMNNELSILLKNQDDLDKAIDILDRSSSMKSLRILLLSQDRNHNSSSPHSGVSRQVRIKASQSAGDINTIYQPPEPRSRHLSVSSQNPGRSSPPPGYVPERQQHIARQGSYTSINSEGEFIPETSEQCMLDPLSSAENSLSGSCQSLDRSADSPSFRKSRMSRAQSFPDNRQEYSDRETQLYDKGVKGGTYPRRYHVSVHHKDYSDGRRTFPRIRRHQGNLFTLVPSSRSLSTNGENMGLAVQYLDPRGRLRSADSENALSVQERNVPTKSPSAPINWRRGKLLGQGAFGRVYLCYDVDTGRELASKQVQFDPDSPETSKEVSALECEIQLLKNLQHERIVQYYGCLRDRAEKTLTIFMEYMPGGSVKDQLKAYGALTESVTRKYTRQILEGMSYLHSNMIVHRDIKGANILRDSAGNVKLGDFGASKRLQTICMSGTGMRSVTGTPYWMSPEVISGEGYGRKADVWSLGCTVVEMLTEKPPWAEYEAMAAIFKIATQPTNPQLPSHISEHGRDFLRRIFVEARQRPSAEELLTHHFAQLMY
Chain of UniProt P21731 (whole entry, looked up): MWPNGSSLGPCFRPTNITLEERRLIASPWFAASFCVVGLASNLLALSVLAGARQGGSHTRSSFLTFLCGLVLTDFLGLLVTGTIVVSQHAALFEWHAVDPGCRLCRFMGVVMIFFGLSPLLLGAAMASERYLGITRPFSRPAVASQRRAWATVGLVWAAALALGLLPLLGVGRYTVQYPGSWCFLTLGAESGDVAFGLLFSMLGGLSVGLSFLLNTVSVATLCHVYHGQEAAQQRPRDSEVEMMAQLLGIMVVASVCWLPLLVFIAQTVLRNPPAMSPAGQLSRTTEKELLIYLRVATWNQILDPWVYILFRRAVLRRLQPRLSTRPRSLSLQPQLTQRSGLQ
Chain of UniProt P36897 (whole entry, looked up): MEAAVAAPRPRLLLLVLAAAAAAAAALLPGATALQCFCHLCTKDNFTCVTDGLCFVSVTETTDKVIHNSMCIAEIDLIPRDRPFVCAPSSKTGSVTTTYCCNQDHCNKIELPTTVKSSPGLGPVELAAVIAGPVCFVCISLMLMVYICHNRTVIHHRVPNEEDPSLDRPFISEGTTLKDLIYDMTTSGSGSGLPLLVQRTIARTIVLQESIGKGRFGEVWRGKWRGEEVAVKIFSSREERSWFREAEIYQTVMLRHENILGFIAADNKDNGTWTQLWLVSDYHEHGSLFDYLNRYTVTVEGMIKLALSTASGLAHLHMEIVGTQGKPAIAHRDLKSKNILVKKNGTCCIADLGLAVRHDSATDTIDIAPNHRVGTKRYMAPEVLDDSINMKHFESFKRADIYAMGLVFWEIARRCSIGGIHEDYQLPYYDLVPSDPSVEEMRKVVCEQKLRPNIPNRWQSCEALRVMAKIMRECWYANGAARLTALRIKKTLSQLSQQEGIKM
Chain of UniProt O14920 (whole entry, looked up): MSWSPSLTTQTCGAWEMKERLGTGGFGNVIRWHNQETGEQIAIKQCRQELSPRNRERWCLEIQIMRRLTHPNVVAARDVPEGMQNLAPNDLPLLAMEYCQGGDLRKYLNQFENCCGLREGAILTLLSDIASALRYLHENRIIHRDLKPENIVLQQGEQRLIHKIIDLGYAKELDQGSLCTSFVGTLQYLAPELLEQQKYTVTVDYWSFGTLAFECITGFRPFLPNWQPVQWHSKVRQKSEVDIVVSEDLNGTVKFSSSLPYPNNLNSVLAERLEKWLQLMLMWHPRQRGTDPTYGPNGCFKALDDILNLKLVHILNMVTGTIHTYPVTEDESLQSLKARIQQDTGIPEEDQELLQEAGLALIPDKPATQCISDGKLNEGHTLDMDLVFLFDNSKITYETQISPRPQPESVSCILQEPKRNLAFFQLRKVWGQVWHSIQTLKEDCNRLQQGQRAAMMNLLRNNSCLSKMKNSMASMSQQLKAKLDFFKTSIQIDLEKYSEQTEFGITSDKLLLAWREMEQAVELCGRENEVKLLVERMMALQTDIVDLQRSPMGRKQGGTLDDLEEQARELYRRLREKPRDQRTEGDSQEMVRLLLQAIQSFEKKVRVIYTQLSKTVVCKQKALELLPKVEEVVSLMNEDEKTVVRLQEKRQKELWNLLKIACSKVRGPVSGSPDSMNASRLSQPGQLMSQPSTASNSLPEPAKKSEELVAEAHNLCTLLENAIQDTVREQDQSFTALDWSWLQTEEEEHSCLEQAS
Chain of UniProt O96017 (whole entry, looked up): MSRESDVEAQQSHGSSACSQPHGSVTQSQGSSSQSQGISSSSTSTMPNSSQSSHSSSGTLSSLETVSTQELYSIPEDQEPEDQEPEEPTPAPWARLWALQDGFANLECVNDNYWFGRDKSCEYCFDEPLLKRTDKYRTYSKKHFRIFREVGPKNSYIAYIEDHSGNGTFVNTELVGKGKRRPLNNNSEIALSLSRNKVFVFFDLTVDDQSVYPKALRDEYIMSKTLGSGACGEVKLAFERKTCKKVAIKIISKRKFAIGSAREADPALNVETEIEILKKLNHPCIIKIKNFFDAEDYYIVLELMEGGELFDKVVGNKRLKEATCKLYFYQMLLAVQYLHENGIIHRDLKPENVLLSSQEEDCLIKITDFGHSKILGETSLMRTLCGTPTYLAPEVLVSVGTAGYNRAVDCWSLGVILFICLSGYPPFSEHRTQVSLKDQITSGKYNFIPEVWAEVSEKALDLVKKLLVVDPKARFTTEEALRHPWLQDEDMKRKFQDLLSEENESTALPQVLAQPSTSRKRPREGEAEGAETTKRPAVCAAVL

Set 1
SMILES: CCN(c1nc(N)c(C(=O)N=C(N)N)nc1Cl)C(C)C
Read-out: β-arrestin recruitment
Action: agonist
Technique: PRESTO-Tango
Concentration: 10 µM
Relative to: untreated
target | fold over basal
Histamine H2 receptor (HRH2, Homo sapiens, UniProt P25021) | 1.35 fold
Leukotriene B4 receptor 2, isoform b (LTB4R2, Homo sapiens, UniProt Q9NPC1) | 0.93
Neuropeptide Y receptor type 2 (NPY2R, Homo sapiens, UniProt P49146) | 0.97
Galanin receptor type 1 (GALR1, Homo sapiens, UniProt P47211) | 0.78 fold
P2Y purinoceptor 4 (P2RY4, Homo sapiens, UniProt P51582) | 0.92
Thromboxane A2 receptor (TBXA2R, Homo sapiens, UniProt P21731) | 1.47 fold

Set 2
Compound: CC1=C(C#N)[C@@H](c2ccc3[nH]nc(C)c3c2)C(C#N)=C(c2ccc(Cl)cc2)N1
Read-out: cell-free assay
Technique: competition with immobilised ligand
Concentration: 1 µM
target | remaining binding [%]
Phosphatidylinositol 4,5-bisphosphate 3-kinase catalytic subunit alpha isoform (PIK3CA, Homo sapiens, UniProt P42336, E545K) | 74.9
Membrane-associated tyrosine- and threonine-specific cdc2-inhibitory kinase (PKMYT1, Homo sapiens, UniProt Q99640) | 100
Serine/threonine-protein kinase B-raf (BRAF, Homo sapiens, UniProt P15056) | 100
Phosphatidylinositol 4-kinase beta (PI4KB, Homo sapiens, UniProt Q9UBF8) | 95.1

Set 3
Species: mouse
Matrix: microsomes or S9
Concentration: 2 µM
Time: 0.5 h
Compound | remaining compound [%]
COC(=O)C1CCN(C(=O)c2ccccc2N(C)S(C)(=O)=O)CC1 | 41.8
CCOc1ccc(S(=O)(=O)Nc2cnc3ccccc3c2)cc1 | 1.78
COc1ccc(CCN2CCC(NC(=O)c3cc4cc(Br)ccc4o3)CC2)cc1 | 23.1
CN(/C=N/c1c(F)c(F)cc(F)c1F)/C=N/c1c(F)c(F)cc(F)c1F | 3.7
Cc1ccc(Cn2c(=O)c3ccc(C(=O)NC(C)C)cc3n3c(=O)n(C)nc23)cc1 | 94.7

Set 4
SMILES: COc1ccc2c(c1)c(C1=C(c3c[nH]c4ccccc34)C(=O)NC1=O)cn2CCCN(C)C
Read-out: enzyme activity
Action: inhibitor
Concentration: 0.5 µM
Relative to: control
target | remaining activity
cGMP-dependent protein kinase 1, isoform beta (PRKG1, Homo sapiens, UniProt Q13976) | 79.4%
TGF-beta receptor type-2 (TGFBR2, Homo sapiens, UniProt P37173) | 120%
Calcium/calmodulin-dependent protein kinase type II subunit delta (CAMK2D, Homo sapiens, UniProt Q13557) | 74.8%
Death-associated protein kinase 2 (DAPK2, Homo sapiens, UniProt Q9UIK4) | 81.1%
Mitogen-activated protein kinase kinase kinase 3 (MAP3K3, Homo sapiens, UniProt Q99759) | 82.8%
STE20/SPS1-related proline-alanine-rich protein kinase (STK39, Homo sapiens, UniProt Q9UEW8) | 111%
Serine/threonine-protein kinase 10 (STK10, Homo sapiens, UniProt O94804) | 31.7%
Calcium/calmodulin-dependent protein kinase kinase 2 (CAMKK2, Homo sapiens, UniProt Q96RR4) | 82%
Inhibitor of nuclear factor kappa-B kinase subunit beta (IKBKB, Homo sapiens, UniProt O14920) | 99.6%
G protein-coupled receptor kinase 3 (GRK3, Homo sapiens, UniProt P35626) | 96.3%
Mitogen-activated protein kinase 9 (MAPK9, Homo sapiens, UniProt P45984) | 86.1%
Tyrosine-protein kinase Lyn, isoform B (LYN, Homo sapiens, UniProt P07948) | 94.2%
Serine/threonine-protein kinase STK11 (STK11, Homo sapiens, UniProt Q15831) | 101%
Death-associated protein kinase 1 (DAPK1, Homo sapiens, UniProt P53355) | 105%
Serine/threonine-protein kinase Chk2 (CHEK2, Homo sapiens, UniProt O96017) | 38.8%
Inhibitor of nuclear factor kappa-B kinase subunit epsilon (IKBKE, Homo sapiens, UniProt Q14164) | 100%
Serine/threonine-protein kinase Nek2 (NEK2, Homo sapiens, UniProt P51955) | 99.7%
Serine/threonine-protein kinase OSR1 (OXSR1, Homo sapiens, UniProt O95747) | 97.7%
cAMP-dependent protein kinase catalytic subunit alpha (PRKACA, Homo sapiens, UniProt P17612) | 77.9%
Protein kinase C alpha type (PRKCA, Homo sapiens, UniProt P17252) | 3.14%
Cyclin-dependent kinase 4, with cyclin D1 (CDK4, Homo sapiens, UniProt P11802) | 78.6%
Cyclin-dependent kinase 5, with p25 (CDK5, Homo sapiens, UniProt Q00535) | 114%
TGF-beta receptor type-1 (TGFBR1, Homo sapiens, UniProt P36897) | 101%
Protein kinase C beta type, isoform beta-I (PRKCB, Homo sapiens, UniProt P05771) | 19.3%

Set 5
Target: Diamine acetyltransferase 1 (Homo sapiens, UniProt P21673)
Action: inhibitor
Concentration: 10 µM
Relative to: control
Target sequence (P21673 1-171): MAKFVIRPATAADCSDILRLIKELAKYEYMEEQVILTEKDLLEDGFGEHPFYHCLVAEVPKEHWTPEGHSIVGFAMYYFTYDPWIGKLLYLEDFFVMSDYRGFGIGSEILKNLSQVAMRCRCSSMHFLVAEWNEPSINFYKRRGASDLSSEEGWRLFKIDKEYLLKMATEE
Compound | remaining activity [%]
CCCCCCCCCCCCCCCCCCCCCCCC(=O)OC | 96.6
NC(=O)c1ccc[n+]([O-])c1 | 96.8
COc1ccc(-c2cc(=O)c3c(O)cc(O[C@@H]4O[C@H](CO)[C@@H](O)[C@H](O)[C@H]4O)cc3o2)cc1 | 85.2
O=c1ccoc2cc(O)ccc12 | 101
CC(=O)O[C@@H]1[C@@H](O)[C@H](O[C@H]2CC[C@]34C[C@]35CC[C@]3(C)[C@@H]([C@@]6(C)CC[C@@H](C(C)(C)O)O6)[C@@H](O)C[C@@]3(C)[C@@H]5C[C@H](O[C@@H]3O[C@H](CO)[C@@H](O)[C@H](O)[C@H]3O)[C@H]4C2(C)C)OC[C@H]1O | 108
CC(=O)OCC1=C[C@@H]2OC(=O)C3=CO[C@@H](O[C@@H]4O[C@H](CO)[C@@H](O)[C@H](O)[C@H]4O)[C@H]1[C@@H]32 | 85.1
C=C[C@H]1[C@H](O[C@@H]2O[C@H](CO)[C@@H](O)[C@H](O)[C@H]2O)OC=C(C(=O)OC)[C@H]1CC(=O)O | 87.7

Set 6
Structure (SMILES): COc1ccc2[nH]c3c4[nH]c5ccc(OC)cc5c4c4c(c3c2c1)C(=O)NC4=O
Read-out: binding
Technique: competition with immobilised ligand
Concentration: 1 µM
target | remaining binding
Mitogen-activated protein kinase 11 (MAPK11, Homo sapiens, UniProt Q15759) | 100%
Mitogen-activated protein kinase 9 (MAPK9, Homo sapiens, UniProt P45984) | 55%
Serine/threonine-protein kinase DCLK3 (DCLK3, Homo sapiens, UniProt Q9C098) | 19%
Serine/threonine-protein kinase MRCK beta (CDC42BPB, Homo sapiens, UniProt Q9Y5S2) | 89%

For quick reference, copied from above (set 4):
target | remaining activity
Calcium/calmodulin-dependent protein kinase kinase 2 (CAMKK2, Homo sapiens, UniProt Q96RR4) | 82%
Calcium/calmodulin-dependent protein kinase type II subunit delta (CAMK2D, Homo sapiens, UniProt Q13557) | 74.8%
Serine/threonine-protein kinase Chk2 (CHEK2, Homo sapiens, UniProt O96017) | 38.8%
TGF-beta receptor type-1 (TGFBR1, Homo sapiens, UniProt P36897) | 101%
cGMP-dependent protein kinase 1, isoform beta (PRKG1, Homo sapiens, UniProt Q13976) | 79.4%
Death-associated protein kinase 2 (DAPK2, Homo sapiens, UniProt Q9UIK4) | 81.1%
Cyclin-dependent kinase 4, with cyclin D1 (CDK4, Homo sapiens, UniProt P11802) | 78.6%
Inhibitor of nuclear factor kappa-B kinase subunit epsilon (IKBKE, Homo sapiens, UniProt Q14164) | 100%
